Assay results gathered from unrelated publications.
Protocols differ between the studies behind these lines. Values joined by “and” are separate records of one study, mostly repeats; a detail may differ. ± gives the spread as reported.

CCCCN1C(=O)c2cccc3c(NCCCCCCCCCCN4CCOCC4)ccc(c23)C1=O  Stokes shift (ethyl acetate): 84 nm
CC[n+]1cccc2cc(/C=N/NC(=O)c3cc(C(=O)N/N=C/c4ccc5c(ccc[n+]5CC)c4)ncn3)ccc21  ΔTm (hp2 hairpin duplex DNA; FRET melting; 1 µM, with: ds26 10 µM): 1 ± 0.3 °C
O=C(NS(=O)(=O)c1cccs1)c1cc2ccccc2n1Cc1ccc(Br)c2ccccc12  body weight (KM mouse, chronic hyperuricaemia model; dose not given, day 12): 32.8 g and 31.2 g and 32 g and 34.6 g and 30.4 g
C=CC(=O)Nc1ccc(OC)c(-c2c[nH]c3ncc(-c4cncc(C(=O)N(C)C)c4)cc23)c1  reactivity half-life (HPLC; acetonitrile/water/DMSO; 50 µM, 37 °C, DIPEA 20 eq, with: N-α-acetyl-lysine): > 24 h
c1ccc(COc2ccc(Nc3ncnc4ccc(-c5cccc(N6CCOCC6)c5)cc34)cc2)cc1  EC50 (Leishmania major; intracellular amastigote growth, luciferase; RAW264.7 macrophages): 20 µM
CCCCN1C(=O)c2cccc3c(NCCCN4CCOCC4)ccc(c23)C1=O  Stokes shift (dioxane): 79 nm
O=C1c2sc(-c3ccc(N4CCC(F)C4)nc3F)nc2CCN1c1cccnc1 (stereo not drawn)  parent fraction (HPLC; rhesus monkey, plasma; intravenous, 119.68 min): 0.0829
CC[n+]1cccc2cc(/C=N/NC(=O)c3ccc4ccc(C(=O)N/N=C/c5ccc6c(ccc[n+]6CC)c5)nc4n3)ccc21  ΔTm (hp2 hairpin duplex DNA; FRET melting; 1 µM, with: ds26 10 µM): 0.9 ± 0.1 °C
CNc1cc(N)c(C(N)=O)cn1  plasma concentration (Han Wistar rats, male, plasma; oral, 30 mg/kg, 0.25 h): 17.4 µM
O=C(Nc1cnccc1-c1ccc([18F])cc1)c1ccnc(NC(=O)C2CC2)c1  SUV (ex vivo gamma counting; GSK-3β transgenic mice, late-stage, thalamus; intravenous, 120 min, mean, P-gp inhibitor pretreatment, with: tariquidar 15 mg/kg iv): 0.22
Cc1nn(-c2nc3c(F)cc(F)cc3s2)c(O)c1C(c1ccc(C(F)(F)F)cc1)c1c(C)nn(-c2nc3c(F)cc(F)cc3s2)c1O  AUMC(0-last) (ICR mouse, plasma; oral, 50 mg/kg): 1.43e+06 h²·ng/mL and 1.54e+06 h²·ng/mL and 2.28e+06 h²·ng/mL
C=CC(=O)Nc1cc(Nc2nccc(-c3c[nH]c4ccccc34)n2)c(OC)cc1N(C)CCN(C)C  recovery (storage stability; human plasma; 72 h, on ice, low QC level): 73.4%
C=C(NC(=O)c1csc(-c2nc3c(cc2O)-c2nc(cs2)C(=O)NC(C(C)O)C(=O)NC(=C(C)OC)c2nc(cs2)C(=O)NC2c4nc(cs4)C(=O)NC(COC(=O)c4c5c6c(cccc6n4O)COC(=O)C(OC4CC(C)(O)C(N(C)C)C(C)O4)C2OC5)c2nc-3cs2)n1)C(N)=O (stereo not drawn)  clearance (Sprague-Dawley rat, female, plasma; intravenous infusion, 18 mg/kg single dose): 51.4 mL/min/kg
CCCCN1C(=O)c2cccc3c(NCCCCCN4CCOCC4)ccc(c23)C1=O  fluorescence lifetime (acetonitrile): 10.2 ns
CN(O)C(=O)CCC(=O)NCCCN(CCCCN(CCCNC(=O)CCC(=O)N(C)O)C(=O)CCC(=O)N(C)O)C(=O)CCC(=O)N(C)O.[89Zr]  intact complex (radio-TLC; aqueous buffer; 1 d, pH 8.5, 37 °C, 89Zr-labelled complex, with: DTPA 1000-fold excess): 99.3 ± 0.5%
C/C(N)=N/C(=N\S(=O)(=O)c1ccc(C(F)(F)F)cc1)N1C[C@H](c2ccccc2)C(c2ccc(Cl)cc2)=N1  Tmax (male C57BL/6 mouse, lung; oral, 10 mg/kg): 1 h
COc1ccc2c(c1)CCn1c[n+]3c(c1-2)-c1ccc(OC)cc1CC3  Monocytes (female NSG mice, blood; 6 mg/kg, day 7, 5 days per week): 12.5 ± 0.84%
CN1CCN(c2cccc(-c3ccc4ncnc(Nc5ccc(OCc6cccc(F)c6)c(Cl)c5)c4c3)c2)CC1  EC50 (Leishmania major; intracellular amastigote growth, luciferase; RAW264.7 macrophages): 4.2 µM
N#C[C@@H]1CC(F)(F)CN1C(=O)CNC(=O)c1ccnc2c(NC(=O)[C@H](CCCCNC(=O)CCOCCOCCOCCOCCOCCOCCNC(=O)CN3CCN(CC(=O)[O-])CCN(CC(=O)[O-])CCN(CC(=O)[O-])CC3)NC(=O)CCCc3ccc(I)cc3)cccc12.[177Lu+3]  tracer uptake (U-87 MG tumour model; host not given, stomach; 24 h, tumour-bearing): 0.8 %ID/g
O=C(Nc1cnccc1-c1ccc([18F])nc1)c1ccnc(NC(=O)C2CC2)c1  SUV (ex vivo gamma counting; GSK-3β transgenic mice, early-stage, cerebellum; intravenous, 120 min, mean, no P-gp inhibitor): 0.023
Cc1cc(-c2ccc(C(=O)[C@@H]3CCCC[C@H]3C(=O)Nc3cnn4c3C(=O)NCC4)cc2)[nH]n1  cumulative recovery of radioactivity (human, faeces; oral, 200 mg, 0-168 h; reference: dose): 72.9%

For quick reference, copied from above:
O=C(Nc1cnccc1-c1ccc([18F])nc1)c1ccnc(NC(=O)C2CC2)c1  SUV (ex vivo gamma counting; GSK-3β transgenic mice, early-stage, cerebellum; intravenous, 120 min, mean, no P-gp inhibitor): 0.023
Cc1cc(-c2ccc(C(=O)[C@@H]3CCCC[C@H]3C(=O)Nc3cnn4c3C(=O)NCC4)cc2)[nH]n1  cumulative recovery of radioactivity (human, faeces; oral, 200 mg, 0-168 h; reference: dose): 72.9%
